Earlier results, collected from citations in different studies.
Compare with care: the assays were run in different laboratories. ± marks the error that the study gave.
Chain of UniProt P07148 (whole entry, looked up): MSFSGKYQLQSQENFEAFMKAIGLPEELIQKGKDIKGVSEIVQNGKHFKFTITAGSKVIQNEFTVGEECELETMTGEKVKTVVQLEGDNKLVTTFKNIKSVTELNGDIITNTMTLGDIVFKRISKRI
Chain of UniProt Q01959 (whole entry, looked up): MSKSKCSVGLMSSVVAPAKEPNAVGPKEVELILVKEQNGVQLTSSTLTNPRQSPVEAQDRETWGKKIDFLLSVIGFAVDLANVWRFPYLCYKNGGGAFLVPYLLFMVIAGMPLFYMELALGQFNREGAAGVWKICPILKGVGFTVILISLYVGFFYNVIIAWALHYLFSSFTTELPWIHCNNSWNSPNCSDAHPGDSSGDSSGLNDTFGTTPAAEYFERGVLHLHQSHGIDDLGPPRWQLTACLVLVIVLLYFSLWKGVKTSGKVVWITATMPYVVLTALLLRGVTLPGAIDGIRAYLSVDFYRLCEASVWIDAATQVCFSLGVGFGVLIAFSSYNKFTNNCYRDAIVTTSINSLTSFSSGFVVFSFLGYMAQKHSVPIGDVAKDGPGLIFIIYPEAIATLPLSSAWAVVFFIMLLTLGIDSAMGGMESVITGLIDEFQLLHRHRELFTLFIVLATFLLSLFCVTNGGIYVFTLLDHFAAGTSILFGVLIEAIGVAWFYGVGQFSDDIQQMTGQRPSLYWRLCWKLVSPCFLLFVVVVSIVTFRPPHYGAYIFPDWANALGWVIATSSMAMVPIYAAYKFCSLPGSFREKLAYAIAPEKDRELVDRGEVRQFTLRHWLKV
Chain of UniProt P41145 (whole entry, looked up): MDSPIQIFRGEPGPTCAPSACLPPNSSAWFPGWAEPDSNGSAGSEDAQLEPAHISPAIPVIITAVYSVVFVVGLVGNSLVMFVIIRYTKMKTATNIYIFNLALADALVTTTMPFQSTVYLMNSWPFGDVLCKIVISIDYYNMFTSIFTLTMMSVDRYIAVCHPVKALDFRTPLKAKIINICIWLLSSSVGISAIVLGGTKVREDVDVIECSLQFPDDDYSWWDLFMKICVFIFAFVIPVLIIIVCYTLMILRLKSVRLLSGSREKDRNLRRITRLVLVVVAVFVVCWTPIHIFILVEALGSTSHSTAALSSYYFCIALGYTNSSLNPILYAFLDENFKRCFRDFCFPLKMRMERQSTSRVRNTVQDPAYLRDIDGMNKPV

| SMILES | target | test | setting | quantity | value |
| --- | --- | --- | --- | --- | --- |
| CCOC(=O)C1C(OC(c2ccc(Cl)cc2)c2ccc(Cl)cc2)CC2CCC1N2C (single isomer, unassigned) | dopamine transporter |  |  | Ki | 14.6 ± 0.39 nM |
| OC[C@H]1NC[C@@H](O)[C@@H]1O | yeast α-glucosidase |  |  | Ki | 180 nM |
| CCCCCc1cc(O)c2c(c1)OC(C)(C)[C@@H]1CCC(C)=C[C@@H]21 | α-glucosidase yeast | enzyme activity, inhibitor |  | IC50 | 3 µg/mL |
| Cc1cc(-c2ccccc2)nc2nc(C(=O)Nc3sc4c(c3C(N)=O)CCCCC4)nn12 | Polymerase acidic protein, with PB1, PB2 (Influenza A virus, UniProt P03433) | RdRP activity, minireplicon |  | IC50 | 16000 nM |
| C[C@H]1[C@H](O)[C@@H](O)CN1C(=O)c1ccccc1 | Penicillium decumbens α-L-rhamnosidase |  |  | Ki | 46000 nM |
| COC(=O)C1C(c2ccc(C)cc2)CC2CCC1N2CC#CC[18F] (stereo not shown) | SLC6A3 (Homo sapiens, UniProt Q01959) | inhibitor |  | IC50 | 3.3 nM |
| CCCCCc1cc(O)c2c(c1)OC(C)(C)[C@@H]1CCC(CO)=C[C@@H]21 | FABP1 (Homo sapiens, UniProt P07148) | binding | previously reported | Kd | 7100 nM |
| O=C(N[C@@H]1CC[C@@]2(O)[C@H]3Cc4ccc(O)c5c4[C@@]2(CCN3CC2CC2)[C@H]1O5)c1cccc2ccoc12 | OPRK1 (Homo sapiens, UniProt P41145) | binding | together with: [3H]diprenorphine | Ki | 0.81 ± 0.14 nM |
| CC(C)N(CCc1c[nH]c2ccc(O)cc12)C(C)C | 5-HT2A receptor | binding |  | Ki | 5.6 nM |
| CCCCCn1cc(C(=O)c2cccc3c2CC(C)(C)C3)c2ccccc21 | cannabinoid receptor CB1 | binding |  | Ki | 1.46 ± 0.49 nM |

For quick reference, copied from above:
| SMILES | target | test | setting | quantity | value |
| --- | --- | --- | --- | --- | --- |
| COC(=O)C1C(c2ccc(C)cc2)CC2CCC1N2CC#CC[18F] (stereo not shown) | SLC6A3 (Homo sapiens, UniProt Q01959) | inhibitor |  | IC50 | 3.3 nM |
